Assay results gathered from unrelated publications.
Each numbered part is a random draw from the data of one study; scales do not carry over between parts.

Series 1
Target: Prothrombin, mature alpha-thrombin (F2, Homo sapiens, UniProt P00734)
Technique: aptamer microarray, sandwich
Molecule type: DNA with 2'F-ANA
Sample: in vitro
Concentration: 200 nM
Setting: whole 15-mer aptamer, many near background
With: Cy3 exosite-II aptamer, 400 nM
Reading: higher = stronger binding
Strand: GGTTGGTGTGGTTGG
Modification	mean fluorescence intensity
2'F-ANA at 4 6 9 10 14 15	60.3 a.u.
2'F-ANA at 2 3 5 7 10 11 15	59.8 a.u.
2'F-ANA at 1 6 7 9 10 13 14 15	49.7 a.u.
2'F-ANA at 1 5 8 11 13 14 15	110 a.u.
2'F-ANA at 2 3 4 5 6 7 14 15	48.8 a.u.
2'F-ANA at 1 10 11	53.1 a.u.
2'F-ANA at 3 4 8 11 13	551 a.u.

Series 2
Target: Interferon regulatory factor 5, full length, phosphomimetic (IRF5, Homo sapiens, UniProt Q13568-2, residues 1-514, K96S/S451D/S453D/S456D/S462D)
Technique: protein-binding microarray
Molecule type: double-stranded DNA, one strand shown
Sample: in vitro
Concentration: 250 nM
Setting: 60-bp whole probe
With: salmon DNA 0.4 mg/ml
Baseline: random background probes
Reading: higher = stronger binding
Constant ends, left off below: GCCTAGCAC … GTCTTGATTCGCTTGACGCTGCTG
Strand	log fluorescence
TTAGATCTCAGACTGGAGTAGTGCTAG	-0.345 z-score
GACGATTTCAGTATCGAGCCGTGCTAG	2.81 z-score
TGAGATCTCAGTATCGATTAGTGCTAG	6.96 z-score
CTCCACTTGTGTTTGGGCATGTGCTAG	0.0263 z-score
TTGGGACTGGGTTTCGGTTAGTGCTAG	7.3 z-score
GACGTTCTCAGACTGGAGACGTGCTAG	-0.0422 z-score
GACGGTTCCCATTTCCTGACGTGCTAG	0.258 z-score
TCAGCTCACACCTGTCATACTGTGCTA	-0.173 z-score
TTAGAACTGAGTACCGATTAGTGCTAG	0.0782 z-score

Series 3
Target: Centromere-binding protein 1, full length, N-terminal tag (CBF1, Saccharomyces cerevisiae, UniProt P17106, residues 1-351)
Chain of UniProt P17106 (whole entry, looked up): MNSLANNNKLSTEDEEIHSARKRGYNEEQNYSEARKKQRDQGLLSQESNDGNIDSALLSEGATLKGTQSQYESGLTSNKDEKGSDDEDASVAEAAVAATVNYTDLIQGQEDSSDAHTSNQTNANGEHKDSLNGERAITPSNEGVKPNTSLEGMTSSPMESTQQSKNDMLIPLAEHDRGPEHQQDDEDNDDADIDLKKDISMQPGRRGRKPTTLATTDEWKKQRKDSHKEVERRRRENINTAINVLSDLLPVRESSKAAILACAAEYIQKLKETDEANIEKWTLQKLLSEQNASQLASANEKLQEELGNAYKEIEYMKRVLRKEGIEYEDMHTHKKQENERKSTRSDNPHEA
Technique: protein-binding microarray
Molecule type: double-stranded DNA, one strand shown
Sample: in vitro
Concentration: 0.8 µM
Setting: whole 60-bp probe, no competitor
Reading: higher = stronger binding
Constant ends, left off below: … GTCTTGATTCGCTTGACGCTGCTG
Strand	fluorescence intensity
GAAGGAGCCAGCCATGGCATCATGCGCTACCGCTAG	542 a.u.
CTAAACATAGGAGATCACGTATTAGTGCATAGATTC	752 a.u.
GAACGAGTAGGCTATCACGTATGCATGGAACGTTAG	563 a.u.
TGTACGAAGCTATCTCACATGGTTATAGTAGTTAGG	652 a.u.
CCTAACTACTATAGTCACCTGCGATAGCTTCGTACA	834 a.u.
CTAACGGATACGCAACTGATGTTGTATAGAAATTTC	493 a.u.
CCTAACTACTATATAAACGTGTAATAGCTTCGTACA	533 a.u.
TGTACGAAGCTATATCACGTCCATATAGTAGTTAGG	610 a.u.
GAAATCCATTTCAATCATGAGAAATGTTTCTTCTAG	461 a.u.

Other studies, line by line
Molecule	target	test	test system	setting	scale	endpoint	value
PhoQ, residues 284 288 289 292 302 303 NLSRDF	PhoP, residues 12 14 15 18 19 LHATL (Escherichia coli, UniProt P23836)	Sort-seq, item: YFP reporter	E. coli	PhoQ-PhoP variant library, with: 10 µM Mg2+	baseline: high Mg2+ state, higher = stronger signaling	fold induction	1

For quick reference, copied from above (series 2):
Strand	log fluorescence
CTCCACTTGTGTTTGGGCATGTGCTAG	0.0263 z-score
TTGGGACTGGGTTTCGGTTAGTGCTAG	7.3 z-score
GACGTTCTCAGACTGGAGACGTGCTAG	-0.0422 z-score
GACGGTTCCCATTTCCTGACGTGCTAG	0.258 z-score
